Measured values from different studies.
Parts stem from different laboratories: compare values within a part only. Positions count from the first letter of the parent shown.

Block 1
Target: CEP164, C-terminal peptide (human)
Method: DHFR complementation, deep sequencing
Matrix: yeast
Setting: single substitutions, model-inferred values
Reference: wild type
Reading: higher = weaker binding
Starting sequence: PDZK1, PDZ domain 2 (human); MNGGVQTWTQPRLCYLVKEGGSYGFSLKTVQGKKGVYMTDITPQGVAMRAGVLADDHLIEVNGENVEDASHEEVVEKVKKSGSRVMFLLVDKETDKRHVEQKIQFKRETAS; partner HNRVKVYRF
Substitution | binding free energy change
V61T | 0.837 kcal/mol
L27D | 0.647 kcal/mol
T94P | 0.0763 kcal/mol
D40N | 0.638 kcal/mol
N2M | -0.0604 kcal/mol
Q101E | -0.119 kcal/mol
G24I | 1.03 kcal/mol
E76C | 0.167 kcal/mol
S81D | 1.16 kcal/mol
E72A | 0.587 kcal/mol
N62S | 0.927 kcal/mol
V36H | -1.64 kcal/mol
E60R | 0.412 kcal/mol
E73K | 0.218 kcal/mol

Block 2
Target: CCNB1, cyclin fold, Cln2 fusion (human)
Method: yeast growth competition, sequencing
Matrix: yeast
Setting: weak parent motif
Reference: not given
Reading: higher = stronger binding
Starting sequence: RB1 docking peptide (human); PKPLKKLRFDIEG
Substitution | normalised enrichment score
R8P | 0.24
I11C | 0.966
L4I | 1.75
D10W | 0.171
P1K | 1.1
L7H | 0.0838
P3A | 1.08
K2W | 0.63
K2M | 0.344
K6V | 0.292
P3V | 0.151
D10H | 1.03
K2T | 0.105
E12A | 0.0497
P3L | -0.0292
K2Q | 0.404
F9D | 0.735
R8Y | 0.545

Block 3
Target: Interferon regulatory factor 3, full length, phosphomimetic (IRF3, Homo sapiens, UniProt Q14653, residues 1-427, S386D/S396D/S398D/S402D/T404D/S405D)
Method: protein-binding microarray
Form: double-stranded DNA, one strand shown
Matrix: in vitro
Tested at: 2540 nM top
Setting: 60-bp whole probe
Together with: salmon DNA 0.4 mg/ml
Reference: random background probes
Reading: higher = stronger binding
Shared flanks, not repeated: GCCTAGCAC … GTCTTGATTCGCTTGACGCTGCTG
Residues (chain): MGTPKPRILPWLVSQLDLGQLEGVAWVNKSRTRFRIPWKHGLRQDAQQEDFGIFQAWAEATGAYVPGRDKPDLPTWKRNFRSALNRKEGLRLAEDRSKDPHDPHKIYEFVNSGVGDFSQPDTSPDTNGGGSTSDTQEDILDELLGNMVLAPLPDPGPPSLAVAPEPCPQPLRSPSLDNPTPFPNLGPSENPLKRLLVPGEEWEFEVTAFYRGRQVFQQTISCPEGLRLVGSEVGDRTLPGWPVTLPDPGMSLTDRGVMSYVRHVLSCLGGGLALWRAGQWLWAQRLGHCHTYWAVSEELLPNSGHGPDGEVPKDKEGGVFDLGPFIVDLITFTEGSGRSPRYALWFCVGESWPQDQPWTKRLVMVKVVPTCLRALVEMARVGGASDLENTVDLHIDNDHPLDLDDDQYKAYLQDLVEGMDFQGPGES
Sequence | fitted relative affinity
TTAGGTATCGGGACTGGGTTCGTGCTA | 1.24 z-score
GACGAACTGAGTCTCGAGATGTGCTAG | -0.265 z-score
ATAGATTTCAGTTTCGATTAGTGCTAG | 6.26 z-score
AGGATCCTGGGAGGGAGAGCGTGCTAG | -0.241 z-score
TCAGTTTTAAATAGGGCACTGTGCTAG | 1.09 z-score
TTAGGTATCAACACTGGGTTAGTGCTA | 0.101 z-score
TTAGGTTCCCTTTTTCTTTAGTGCTAG | 6.53 z-score
TCACATCGTAAGCAAAAACTGTGCTAG | 0.0587 z-score
GACGGTTTCGGTCTCGGCACGTGCTAG | 8.04 z-score
TTAGATCTCAGTCACGATTAGTGCTAG | -0.028 z-score
GACGATATCAGTTCCGAGACGTGCTAG | 1.56 z-score
CCCTGTTTCTACTGTCTGTTTGTGCTA | 1.26 z-score
TTAGGTTTCCGACTGCTTTAGTGCTAG | 4.76 z-score
TTAGGACTGGTCTATCGGTTAGTGCTA | -0.563 z-score
TCATACCTGAATATCTTACTGTGCTAG | 0.415 z-score
TTAGATTTCGGGTATAGATTAGTGCTA | 1.14 z-score
TGAGATTTCCATTATTGCTTGTGCTAG | 1.83 z-score
TCAGATTTTGGTCTTTCACTGTGCTAG | 0.747 z-score
GACGATTACAGTTCCGAGACGTGCTAG | 0.761 z-score

Block 4
Target: Histone acetyltransferase KAT6A, both winged helices, GST fusion (KAT6A, Homo sapiens, UniProt Q92794, residues 1-181)
Method: protein binding microarray
Form: double-stranded DNA, one strand shown
Matrix: in vitro
Tested at: not given
Setting: 8-mer, flanks averaged, mean of 2 arrays, mostly near background
Reference: not given
Reading: higher = stronger binding
Target sequence (chain): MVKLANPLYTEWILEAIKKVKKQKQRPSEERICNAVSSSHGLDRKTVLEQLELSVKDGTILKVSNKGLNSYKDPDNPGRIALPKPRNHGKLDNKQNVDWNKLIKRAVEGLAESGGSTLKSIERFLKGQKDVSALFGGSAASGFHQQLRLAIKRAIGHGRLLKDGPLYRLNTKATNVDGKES
Sequence | E-score
CAGAGTCC | -0.131
AGGGGCAC | -0.134
ATGCCCAG | -0.176
CAATATGC | -0.0438
GAACTCAA | -0.184
CAACTTAG | -0.0346
CGAAAATA | 0.106
AAGATCAG | -0.0453
CCCGGCGG | 0.306
CCAATGAC | -0.199
AGGTGTGC | -0.134
ACTCCCGC | 0.267
CGGGTTAC | 0.283
AGCGCCGA | 0.33
CGGGACGA | 0.091
CTACCATA | -0.124
ATTCAAGG | -0.181
AGCTAAAA | 0.000365
CTCAGGAG | -0.195
TGTCACAA | 0.0246

Block 5
Target: PABPC1L2, full length, GST fusion (mouse, UniProt A0ABA7IW68)
Method: RNAcompete
Form: RNA
Matrix: in vitro
Tested at: 20 nM
Setting: 7-mer, probes averaged, single round
Reference: mean of 7-mers
Reading: higher = stronger binding
Residues (chain): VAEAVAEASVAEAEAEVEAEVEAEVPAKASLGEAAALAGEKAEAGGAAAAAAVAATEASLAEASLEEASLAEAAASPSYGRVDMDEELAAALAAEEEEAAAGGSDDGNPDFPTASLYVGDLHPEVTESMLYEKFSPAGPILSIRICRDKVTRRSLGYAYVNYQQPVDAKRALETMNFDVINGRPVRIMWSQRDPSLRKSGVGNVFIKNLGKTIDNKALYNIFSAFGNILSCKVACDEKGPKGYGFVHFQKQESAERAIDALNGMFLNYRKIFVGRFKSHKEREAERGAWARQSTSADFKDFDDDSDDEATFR
Sequence | 7-mer Z-score
CUUUUAG | 0.287
CCUUCCC | -0.507
UCACCUC | -0.403
AGUGGUC | -0.199
GAUCUAU | -0.148
UGCAAGA | 0.017
GAGUAGG | -0.0355
UGUAGCU | -0.184
GUCCUAA | -0.122
AUGUUUA | -0.266
UUAUCAG | -0.186
CCGAGAG | -0.151
GUUACGC | -0.277
CACCUGU | -0.405
UGAUGAC | -0.22
AGUUGUG | -0.253
ACAGUAU | -0.0536
AAGCUUG | 0.227

Block 6
Target: Sal-like protein 4, full length isoform B (SALL4, Homo sapiens, UniProt Q9UJQ4-2, residues 1-616)
Method: universal PBM
Form: double-stranded DNA, one strand shown
Matrix: in vitro
Tested at: not given
Setting: 8-mer, flanks averaged, mean of replicates
Reading: higher = stronger binding
Residues (chain): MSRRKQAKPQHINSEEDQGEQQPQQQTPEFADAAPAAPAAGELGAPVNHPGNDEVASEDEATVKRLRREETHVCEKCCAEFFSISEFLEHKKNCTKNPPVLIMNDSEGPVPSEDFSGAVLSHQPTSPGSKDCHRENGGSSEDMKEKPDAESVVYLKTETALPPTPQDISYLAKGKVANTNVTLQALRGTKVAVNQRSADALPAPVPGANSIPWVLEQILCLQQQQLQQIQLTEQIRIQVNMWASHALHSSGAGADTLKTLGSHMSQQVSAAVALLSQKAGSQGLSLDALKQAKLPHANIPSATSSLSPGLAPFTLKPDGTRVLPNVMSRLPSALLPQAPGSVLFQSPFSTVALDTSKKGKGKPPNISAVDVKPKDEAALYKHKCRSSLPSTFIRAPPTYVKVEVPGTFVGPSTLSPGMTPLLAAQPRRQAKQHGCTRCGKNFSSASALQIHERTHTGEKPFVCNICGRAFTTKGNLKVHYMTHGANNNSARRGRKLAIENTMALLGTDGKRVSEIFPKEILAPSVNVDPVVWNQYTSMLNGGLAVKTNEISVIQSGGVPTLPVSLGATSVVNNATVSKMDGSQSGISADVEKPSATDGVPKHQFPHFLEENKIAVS
Sequence | E-score
GGGGCCAC | -0.292
GCGGGTAA | -0.204
CCCGACGG | -0.187
ATGGCCCA | -0.0951
GACACTAC | -0.0398
AATCCGCG | -0.23
CTTCAAGC | -0.195
AAAGTAGT | 0.0575
AGACGCCC | -0.363
TCTGTAAA | 0.18
GAATGGCA | -0.00104
CTTATAGC | 0.19
CGTGACAG | -0.241
TGGACGAA | 0.154
GGTTGAAC | -0.0703
AACCTAAA | 0.244
AGAACAGC | -0.118
AGCTAGGA | -0.161
GCGAAATA | 0.145
ACTTCATC | 0.0825

Other studies, line by line
Molecule | target | assay | system | setting | how to read | quantity | result
PhoQ, residues 284 288 289 292 302 303 ALVSVA | PhoP, residues 12 14 15 18 19 AWHSL (Escherichia coli, UniProt P23836) | Sort-seq, refers to: YFP reporter | E. coli | PhoQ-PhoP variant library, together with: 10 µM Mg2+ | reference: high Mg2+ state, higher = stronger signaling | fold induction | 4.33

Repeated from above (block 1):
Substitution | binding free energy change
N2M | -0.0604 kcal/mol
L27D | 0.647 kcal/mol
D40N | 0.638 kcal/mol
S81D | 1.16 kcal/mol
Q101E | -0.119 kcal/mol
V61T | 0.837 kcal/mol
G24I | 1.03 kcal/mol
E72A | 0.587 kcal/mol
T94P | 0.0763 kcal/mol
V36H | -1.64 kcal/mol
N62S | 0.927 kcal/mol
E76C | 0.167 kcal/mol
E73K | 0.218 kcal/mol
E60R | 0.412 kcal/mol
